Measured values gathered from unrelated publications.
Each numbered part is a random draw from the data of one study; scales do not carry over between parts.

Series 1
Target: RING finger protein unkempt homolog, zinc fingers 1-6, GST-SBP tag (UNK, Homo sapiens, UniProt Q9C0B0, residues 30-357)
Chain of UniProt Q9C0B0 (30-357, looked up): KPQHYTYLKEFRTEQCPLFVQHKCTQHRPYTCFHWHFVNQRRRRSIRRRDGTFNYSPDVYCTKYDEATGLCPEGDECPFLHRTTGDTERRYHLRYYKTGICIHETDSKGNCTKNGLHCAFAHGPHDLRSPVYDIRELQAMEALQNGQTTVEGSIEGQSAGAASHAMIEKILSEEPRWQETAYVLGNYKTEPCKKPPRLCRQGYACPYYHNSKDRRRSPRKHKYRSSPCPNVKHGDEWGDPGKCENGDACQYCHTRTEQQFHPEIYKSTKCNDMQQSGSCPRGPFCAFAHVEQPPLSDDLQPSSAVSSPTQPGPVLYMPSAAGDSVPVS
Technique: RNA Bind-n-Seq
Molecule type: RNA
Medium: in vitro
Concentration: not given
Notes: RNA with constant flanks, human-mouse chimeric sites, ends assumed
Relative to: input RNA pool
Reading: higher = stronger binding
| Oligonucleotide | bound/input enrichment |
| --- | --- |
| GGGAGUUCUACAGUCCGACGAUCCAGCCUCAGAGCCCAGACUUCCUGGAUAUUACCAACCCUAAAGCGGUAUUAGAAAAUGCAUUGAGAAACUUCGCCUGUCUGACGACUGGAGAUGUGAUUGCCAUCAACUAUAAUGAAAAGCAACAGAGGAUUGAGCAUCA | 0.43 ratio |
| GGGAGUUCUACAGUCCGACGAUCCUCAUGGCUGCAGAAACAGGAAGUGGCAAAACUGGUGCAUUUAGUAUUCCCGUUAUCCAGAUAGUGUAUGAAACUCUGAAAGACCAACAGGAAGGAAAGAAAGGGAAAACAACAAUUAAACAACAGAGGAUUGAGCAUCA | 1.07 ratio |
| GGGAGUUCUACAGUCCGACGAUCGGAAGUACAAUGAUGGAAAUAGAUGGCGACAAAGGCAAGCAGGGCGGGCCCACCUACUACAUAGACACCAAUGCCCUGCGUGUUCCGAGGGAGAACAUGGAGGCCAUCUCACCACUCAAGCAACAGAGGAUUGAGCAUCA | 0.19 ratio |
| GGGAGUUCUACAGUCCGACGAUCUGUGAACUGAAAGGUGUUUGGGGUCUACAAGAUGACUUUUCCUGGCACAUAUUCCAAAGCAAAGACUUUGUUGCCUGCUGCUUAUUGUCUAAUUUACAGGGAUAUUUAAUUUUGUCAGGUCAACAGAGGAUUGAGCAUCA | 0.182 ratio |
| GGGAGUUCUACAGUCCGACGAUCUUACUUUUGACUCCCUGGGUCAAGUUCCUGUGGGAAUCAUACAGGCAGUGUUUGGACCUUCUUCGAAACAAUUCUAGAGUAGAGCGCCUUUACCAUGAUAUUGCCCAACAAGCUUUCAAACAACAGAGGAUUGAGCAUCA | 0.143 ratio |
| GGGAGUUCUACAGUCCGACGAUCAAAGAGAAACUAAAGCAACUAAUAGAGGAAGAGGAUUGCAAAGAGAAUUUCAUAGAGAAACUAGGAUUUAUUAGCAAACAUGAGUUAUAUUCCAGAGCGUCUCAGAAAACCCCAGCCAACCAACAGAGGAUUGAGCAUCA | 6.83 ratio |
| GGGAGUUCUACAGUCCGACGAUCAUAAAAGCUAUGUUGAGUGGUCCAGGUCAGUUUGCUGAGAAUGAAACCAACGAGGUCAAUUUUAGAGAGAUCCCCUCACAUGUGCUAUCAAAAGUGUGCAUGUAUUUUACCUACAAGGUCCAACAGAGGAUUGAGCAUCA | 0.337 ratio |
| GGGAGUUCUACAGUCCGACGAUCUCUUUAAAAAAAAAAUUACCUUUUCUGACAGUGCUUUCCCUCCCAUAGAUCCACGUUCAAGCUCAAAGGCCAAAACUUUUGCACGGAGCUCAAACAUCUGAUGAAGAAAGAUUUCUGAGACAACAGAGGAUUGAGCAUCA | 1.35 ratio |
| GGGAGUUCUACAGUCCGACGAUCCCAAGUGAUUCAUUCCAAGGACAGGCCACCCCAUUUGAUGCCUGGACUGAUGACAGUAUGGAAGGGCCUAGUCAAAAUGUUGAAGCUGAGUCAAUUCAGGAUGCCAUGAGUAUGGAAGAGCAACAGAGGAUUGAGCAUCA | 0.242 ratio |
| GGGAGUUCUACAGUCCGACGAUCAAGCAACGCAAACUUGAAACUACAGAAUAUCUUGCAGCCUCAGUGUUCACUUGCUUGGCGAUAGCAUUGGGGUUUUAUAGGUUCUGGAAGGAGAACUGACGAUGAUGCUGCCGCUGCUGCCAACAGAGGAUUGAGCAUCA | 0.605 ratio |
| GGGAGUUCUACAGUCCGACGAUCAAUUUCCUGUCAUACUUUUUAGACAUUGCCAUAGGUAUUACAGAGCACCUGGCCACAUUCUAGGUUUGUGUUAUUUCUCAGCUAUGGAUAUGAUCAAAUGAGAACACUGCUUAACUAAUGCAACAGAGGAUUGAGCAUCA | 0.853 ratio |

Series 2
Target: Sal-like protein 4, full length isoform B (SALL4, Homo sapiens, UniProt Q9UJQ4-2, residues 1-616)
Technique: universal PBM
Molecule type: double-stranded DNA, one strand shown
Medium: in vitro
Concentration: not given
Notes: 8-mer, flanks averaged, mean of replicates
Reading: higher = stronger binding
Residues (chain): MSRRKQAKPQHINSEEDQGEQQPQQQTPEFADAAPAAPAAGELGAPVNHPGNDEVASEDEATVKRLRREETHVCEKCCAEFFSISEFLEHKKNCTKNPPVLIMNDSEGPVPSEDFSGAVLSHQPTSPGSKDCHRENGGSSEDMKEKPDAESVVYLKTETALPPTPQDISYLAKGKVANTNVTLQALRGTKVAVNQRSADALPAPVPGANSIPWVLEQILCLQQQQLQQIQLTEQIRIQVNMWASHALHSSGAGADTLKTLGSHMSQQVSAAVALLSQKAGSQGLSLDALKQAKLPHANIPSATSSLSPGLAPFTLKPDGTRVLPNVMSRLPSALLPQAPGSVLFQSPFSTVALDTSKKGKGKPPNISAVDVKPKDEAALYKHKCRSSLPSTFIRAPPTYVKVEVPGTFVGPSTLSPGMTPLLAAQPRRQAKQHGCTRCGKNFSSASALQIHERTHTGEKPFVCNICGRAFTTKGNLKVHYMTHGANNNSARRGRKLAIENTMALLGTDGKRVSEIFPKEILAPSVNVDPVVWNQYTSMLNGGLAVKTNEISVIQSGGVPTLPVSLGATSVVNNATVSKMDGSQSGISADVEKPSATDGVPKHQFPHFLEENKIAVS
| Oligonucleotide | E-score |
| --- | --- |
| GTAAGTCA | 0.0557 |
| ATATTAAG | 0.393 |
| ACGTACTA | 0.14 |
| GTGAGCAA | -0.154 |
| CTTGAAGC | -0.00811 |
| CAATAAGC | 0.123 |
| AACATAAC | 0.311 |
| ATCCCGTG | -0.0516 |
| ACTACGGG | -0.194 |
| CTGCAATC | 0.0112 |
| ATAAGCGC | -0.0509 |
| TCACACCA | 0.0997 |
| AAAGACAC | 0.0643 |
| ACTACTCA | 0.0647 |
| ATGCCACA | 0.087 |
| CACTCGGA | -0.0469 |
| AATGGGGT | -0.00374 |
| CGACCCTA | -0.152 |
| GAGTTACA | 0.0636 |
| CCCTAGCA | -0.168 |
| CGCTAAGA | -0.2 |
| TACCCGCA | -0.122 |
| CATCGCCG | -0.168 |
| AGAAAGAA | 0.147 |
| CGGATCGC | -0.188 |

Series 3
Target: Histone acetyltransferase KAT6A, both winged helices, GST fusion (KAT6A, Homo sapiens, UniProt Q92794, residues 1-181)
Technique: protein binding microarray
Molecule type: double-stranded DNA, one strand shown
Medium: in vitro
Concentration: not given
Notes: 8-mer, flanks averaged, mean of 2 arrays, mostly near background
Relative to: not given
Reading: higher = stronger binding
Target sequence (chain): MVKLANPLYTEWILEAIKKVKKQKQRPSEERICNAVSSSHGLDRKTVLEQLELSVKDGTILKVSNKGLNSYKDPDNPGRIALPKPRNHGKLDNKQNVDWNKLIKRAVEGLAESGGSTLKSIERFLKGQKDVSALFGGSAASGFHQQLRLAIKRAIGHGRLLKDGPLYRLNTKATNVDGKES
| Oligonucleotide | E-score |
| --- | --- |
| AACAGTAC | -0.0434 |
| CTTATCAC | -0.107 |
| GACAGCAC | 0.00056 |
| ACAAAGGA | -0.252 |
| CAATTCAG | -0.134 |
| CCCTACAC | -0.13 |
| AACGGCAG | 0.228 |
| CTAATTGA | -0.138 |
| GGCGGCTA | 0.236 |
| GCTGTTGA | 0.0582 |
| CACGTTCA | 0.0224 |
| CGGGACTA | 0.173 |
| ACCTCATG | -0.178 |
| AATCGCGA | 0.155 |
| GGTGTTCA | -0.0132 |
| CTATCCAG | -0.124 |
| GACCACCA | 0.00188 |
| GACGGCAA | 0.284 |
| CTATACCC | -0.00791 |
| ACAATGAC | -0.14 |
| CTATAAAC | -0.0357 |
| ACTCAGCC | -0.0848 |
| CCGGAAAC | 0.194 |
| ACCCCTCT | -0.257 |
| CCGGTTGC | 0.24 |

Series 4
Target: RNA binding protein fox-1 homolog 2, RRM domain, GST-SBP tag (RBFOX2, Homo sapiens, UniProt O43251-10, residues 100-194)
Technique: RNA Bind-n-Seq
Molecule type: RNA
Medium: in vitro
Concentration: 365 nM
Notes: natural RNA segment, single round, ends assumed
Relative to: no-protein control
Reading: higher = stronger binding
Construct (chain): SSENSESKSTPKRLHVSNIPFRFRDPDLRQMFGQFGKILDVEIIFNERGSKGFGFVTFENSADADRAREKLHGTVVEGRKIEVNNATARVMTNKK
| Oligonucleotide | RBNS enrichment (R) |
| --- | --- |
| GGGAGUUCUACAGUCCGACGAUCAGGGAGAACACAGAAAGAAGAAUUUCUAAAAUAUUGGAUUUACUUCUUAUAUUGAGUCAGAUGCAUACUUUUAGAUUUGCAUUGGGGAAAAUGUACUAGCUAAAAAUGGAUGGAAUUCUCGGGUGCCAA | 0.86 |
| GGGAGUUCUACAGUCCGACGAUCGGCUUGCAGCUGGUGAUGGUCAAGAACUGACUACAAAACAGGAAUGGAUAGACUCUAUUUCCUUCCAUAUCUGUUCCUCUGUUCCUUUUCCCACUUUCUGGGUGGCUUUUUGGAAUUCUCGGGUGCCAA | 0.239 |
| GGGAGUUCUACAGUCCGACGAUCUUCUCUGUGUACCACCUCUGCUGUCUCAGAUGCCCCCAGCAAAUAAACACUCUUCUCGUUGGUCAGACUGGAUUGUGCGUCCAAUCAUUUUGGCUGGGGUAGGGGGUAAUUGGAAUUCUCGGGUGCCAA | 0.439 |
| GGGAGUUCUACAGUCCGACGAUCUUUUAGGCACUCUUAAACCAUCUGCCUCUAAAAGCAUUGGAUGUAGCAUUGCGCAAUUAGGUUGUUCCUUAUUUGCUUUGUUGUACUACCUGUGUAUAUAGUUUUUAUCUUGGAAUUCUCGGGUGCCAA | 0.475 |
| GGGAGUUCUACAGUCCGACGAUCUUUUGCUGGUAAUUUCAGUAACUGUUUUCAGCAAGAAUAUUACAUGAGCUCUAAAGUUAUUAAGCAGUUUUAUGUUCGUUUUGUGUUUAGGGAGCUUUUUAAAACACUUCUGGAAUUCUCGGGUGCCAA | 0.679 |
| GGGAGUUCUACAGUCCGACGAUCCUUCAUCAGAGCCAACCUUUGAUAUUCUUGGAGGGGACAGGAGGUGGGAACACAGAGGGAGUAGCCUGCGAAUGUGCCUCCAGUCAGUGGGAUACUUUCUGCACCACUCUUGGAAUUCUCGGGUGCCAA | 0.938 |
| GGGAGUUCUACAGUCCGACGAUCCUGAAAGCUGUGGACACCAAUGGCCAGGAUUCCUUCUCCCCUGGUUUUUGAGGAUCCCUGGGUCUUCUGAGACUGGCCAGGAGAGGGAUGGUGGGGCCAGUGGUUGUGUGUGGAAUUCUCGGGUGCCAA | 0.216 |
| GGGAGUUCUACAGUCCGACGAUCUAACCCACUUCUCUCCCAUCUUCUCCGAGCCAUGACUCAAGAAGAAAAGGGUGCUCGGACUCUCUUAUACACAUGUGCUUUGUGUAAAUAAAUGUUUACAAUUUUAUAUUUGGAAUUCUCGGGUGCCAA | 0.986 |
| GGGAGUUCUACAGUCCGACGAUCCUUGUACCCAAUUGCUCCCAAUUUUGAGAGGAUUGGGUGGGCAGGGGAACUCCUAAAAAAAAAAAAUAAUAAAUGACCACUUCCUCGUUUCUGGGGAAGCAAAGGAGCUUUGGAAUUCUCGGGUGCCAA | 0.283 |
| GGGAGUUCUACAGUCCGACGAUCAAGUAGCAUUCCUCCACCUCAGGCCUUGGGUAGAUUUGGCAAAAGAACAGGAGCAGCAUAGGCUGUUUGAGCUUUGGGGAAAUGAACUUUGCUUUUUAUAUUUAACUAGGUGGAAUUCUCGGGUGCCAA | 0.689 |
| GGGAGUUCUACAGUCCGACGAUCAAACAACACGCUCUCCUUCAGACAAUGAGGCAUUCUGUCCUCCUGCUGCCAUUCUUCAUCUCCACUGAGAGCCAGAGCUGGUAGGAGCCGAGUGCCACAGGCAUUCUGCAUGGAAUUCUCGGGUGCCAA | 0.607 |
| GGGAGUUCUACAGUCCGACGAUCUUUCUAAUUGUACCUGAGUUGACCAUCCUUUCUUUUUAUAGUAUAUUUCUUGUAUGAUAUUUUGUAAAGCUCUCACCUGGUUCUUUUAUGGGGACUUUUCGUUUUUGGGCUGGAAUUCUCGGGUGCCAA | 0.376 |

For quick reference, copied from above (series 3):
| Oligonucleotide | E-score |
| --- | --- |
| GCTGTTGA | 0.0582 |
| CACGTTCA | 0.0224 |
| CGGGACTA | 0.173 |
| ACCTCATG | -0.178 |
| AATCGCGA | 0.155 |
| GGTGTTCA | -0.0132 |
